Results pooled from the literature.
A part holds a random share of what one study measured.
UniProt Q56UN5, sequence (whole entry, looked up): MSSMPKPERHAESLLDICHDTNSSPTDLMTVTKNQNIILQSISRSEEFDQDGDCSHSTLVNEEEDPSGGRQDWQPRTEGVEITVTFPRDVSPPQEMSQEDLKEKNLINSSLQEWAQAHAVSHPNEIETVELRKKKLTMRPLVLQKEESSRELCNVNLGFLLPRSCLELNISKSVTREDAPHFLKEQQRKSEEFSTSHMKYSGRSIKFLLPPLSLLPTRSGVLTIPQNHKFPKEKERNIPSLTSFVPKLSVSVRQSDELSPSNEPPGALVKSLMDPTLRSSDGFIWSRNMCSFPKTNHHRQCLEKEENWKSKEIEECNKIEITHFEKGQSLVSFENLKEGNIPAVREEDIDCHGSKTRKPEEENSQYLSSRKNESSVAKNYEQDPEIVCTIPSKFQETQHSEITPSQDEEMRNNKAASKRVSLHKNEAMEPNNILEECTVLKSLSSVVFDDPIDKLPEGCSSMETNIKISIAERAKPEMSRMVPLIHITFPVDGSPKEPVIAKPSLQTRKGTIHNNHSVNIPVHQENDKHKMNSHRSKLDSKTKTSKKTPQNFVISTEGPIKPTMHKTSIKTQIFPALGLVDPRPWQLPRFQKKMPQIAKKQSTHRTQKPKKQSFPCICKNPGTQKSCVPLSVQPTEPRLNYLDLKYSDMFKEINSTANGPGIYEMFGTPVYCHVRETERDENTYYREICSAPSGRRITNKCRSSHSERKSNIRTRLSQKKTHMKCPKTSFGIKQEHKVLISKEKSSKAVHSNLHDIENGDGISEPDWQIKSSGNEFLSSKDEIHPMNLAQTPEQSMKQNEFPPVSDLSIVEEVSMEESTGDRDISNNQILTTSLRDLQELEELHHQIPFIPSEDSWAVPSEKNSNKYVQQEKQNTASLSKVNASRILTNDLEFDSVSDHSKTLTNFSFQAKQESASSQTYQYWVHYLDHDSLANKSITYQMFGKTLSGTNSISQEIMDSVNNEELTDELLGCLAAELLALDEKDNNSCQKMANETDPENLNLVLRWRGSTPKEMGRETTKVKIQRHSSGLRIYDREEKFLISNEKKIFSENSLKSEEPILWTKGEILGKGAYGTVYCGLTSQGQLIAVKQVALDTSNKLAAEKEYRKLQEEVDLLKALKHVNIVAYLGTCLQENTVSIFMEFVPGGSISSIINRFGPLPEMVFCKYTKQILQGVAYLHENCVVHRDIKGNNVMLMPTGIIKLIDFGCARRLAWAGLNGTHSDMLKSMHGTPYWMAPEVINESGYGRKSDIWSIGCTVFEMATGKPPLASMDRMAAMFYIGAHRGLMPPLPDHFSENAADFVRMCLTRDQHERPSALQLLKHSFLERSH
UniProt Q9H3Y6, sequence (whole entry, looked up): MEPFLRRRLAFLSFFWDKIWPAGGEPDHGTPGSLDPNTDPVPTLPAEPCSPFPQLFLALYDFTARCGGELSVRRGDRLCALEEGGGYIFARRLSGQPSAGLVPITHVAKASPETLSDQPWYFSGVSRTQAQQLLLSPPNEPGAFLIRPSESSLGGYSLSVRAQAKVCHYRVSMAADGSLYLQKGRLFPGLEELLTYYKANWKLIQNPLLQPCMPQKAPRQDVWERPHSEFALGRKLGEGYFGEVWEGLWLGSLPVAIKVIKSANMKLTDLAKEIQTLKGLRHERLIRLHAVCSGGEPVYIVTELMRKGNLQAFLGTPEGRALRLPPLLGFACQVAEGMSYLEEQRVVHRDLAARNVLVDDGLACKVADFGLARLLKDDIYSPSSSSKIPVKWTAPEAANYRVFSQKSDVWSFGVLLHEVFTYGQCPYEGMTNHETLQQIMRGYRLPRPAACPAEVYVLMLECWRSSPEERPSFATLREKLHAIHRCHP
UniProt P14616, sequence (whole entry, looked up): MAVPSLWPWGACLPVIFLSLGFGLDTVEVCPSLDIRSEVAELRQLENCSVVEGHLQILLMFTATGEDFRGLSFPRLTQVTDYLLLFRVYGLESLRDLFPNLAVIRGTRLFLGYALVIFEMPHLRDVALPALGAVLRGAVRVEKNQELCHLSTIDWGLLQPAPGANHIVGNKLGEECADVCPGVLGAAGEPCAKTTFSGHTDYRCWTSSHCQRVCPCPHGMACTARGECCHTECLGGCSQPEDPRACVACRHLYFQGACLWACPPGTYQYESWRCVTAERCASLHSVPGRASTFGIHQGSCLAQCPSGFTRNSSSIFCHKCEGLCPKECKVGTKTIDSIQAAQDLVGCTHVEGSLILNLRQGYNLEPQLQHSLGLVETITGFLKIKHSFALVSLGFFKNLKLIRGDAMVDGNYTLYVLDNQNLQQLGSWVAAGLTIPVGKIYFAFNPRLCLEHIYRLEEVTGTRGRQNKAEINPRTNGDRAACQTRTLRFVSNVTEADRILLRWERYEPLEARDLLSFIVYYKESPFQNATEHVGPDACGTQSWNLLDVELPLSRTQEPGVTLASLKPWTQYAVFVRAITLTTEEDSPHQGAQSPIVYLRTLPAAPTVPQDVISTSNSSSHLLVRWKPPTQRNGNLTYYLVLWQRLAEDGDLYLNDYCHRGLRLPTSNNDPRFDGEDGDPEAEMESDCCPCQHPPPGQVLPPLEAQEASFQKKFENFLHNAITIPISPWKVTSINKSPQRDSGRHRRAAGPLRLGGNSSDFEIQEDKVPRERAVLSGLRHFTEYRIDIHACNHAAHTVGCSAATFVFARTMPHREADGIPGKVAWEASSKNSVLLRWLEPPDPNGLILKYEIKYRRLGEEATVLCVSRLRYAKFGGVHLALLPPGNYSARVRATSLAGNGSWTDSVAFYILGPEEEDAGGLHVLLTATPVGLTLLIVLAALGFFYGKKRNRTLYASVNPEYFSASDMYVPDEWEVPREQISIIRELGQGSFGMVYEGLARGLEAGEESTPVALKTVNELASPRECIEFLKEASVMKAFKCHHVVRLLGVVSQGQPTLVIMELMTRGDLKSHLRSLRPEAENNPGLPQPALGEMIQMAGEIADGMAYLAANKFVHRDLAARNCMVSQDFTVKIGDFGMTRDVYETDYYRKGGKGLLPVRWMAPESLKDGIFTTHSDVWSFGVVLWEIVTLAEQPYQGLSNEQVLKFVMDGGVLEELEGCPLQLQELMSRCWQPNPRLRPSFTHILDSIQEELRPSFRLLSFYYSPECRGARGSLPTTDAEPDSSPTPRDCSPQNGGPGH
UniProt Q13882, sequence (whole entry, looked up): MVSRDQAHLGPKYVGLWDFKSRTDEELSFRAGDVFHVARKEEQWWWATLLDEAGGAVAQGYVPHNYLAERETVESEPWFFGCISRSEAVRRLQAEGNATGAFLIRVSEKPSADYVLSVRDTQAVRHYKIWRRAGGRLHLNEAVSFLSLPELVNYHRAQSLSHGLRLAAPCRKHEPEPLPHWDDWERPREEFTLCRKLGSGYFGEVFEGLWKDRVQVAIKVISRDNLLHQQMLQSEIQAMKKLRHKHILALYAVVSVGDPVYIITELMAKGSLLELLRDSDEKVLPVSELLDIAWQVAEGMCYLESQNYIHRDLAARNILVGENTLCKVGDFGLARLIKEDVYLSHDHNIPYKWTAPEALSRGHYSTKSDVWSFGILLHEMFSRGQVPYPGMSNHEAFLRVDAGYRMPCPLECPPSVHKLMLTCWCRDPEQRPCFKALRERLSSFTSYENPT
UniProt O75582, sequence (whole entry, looked up): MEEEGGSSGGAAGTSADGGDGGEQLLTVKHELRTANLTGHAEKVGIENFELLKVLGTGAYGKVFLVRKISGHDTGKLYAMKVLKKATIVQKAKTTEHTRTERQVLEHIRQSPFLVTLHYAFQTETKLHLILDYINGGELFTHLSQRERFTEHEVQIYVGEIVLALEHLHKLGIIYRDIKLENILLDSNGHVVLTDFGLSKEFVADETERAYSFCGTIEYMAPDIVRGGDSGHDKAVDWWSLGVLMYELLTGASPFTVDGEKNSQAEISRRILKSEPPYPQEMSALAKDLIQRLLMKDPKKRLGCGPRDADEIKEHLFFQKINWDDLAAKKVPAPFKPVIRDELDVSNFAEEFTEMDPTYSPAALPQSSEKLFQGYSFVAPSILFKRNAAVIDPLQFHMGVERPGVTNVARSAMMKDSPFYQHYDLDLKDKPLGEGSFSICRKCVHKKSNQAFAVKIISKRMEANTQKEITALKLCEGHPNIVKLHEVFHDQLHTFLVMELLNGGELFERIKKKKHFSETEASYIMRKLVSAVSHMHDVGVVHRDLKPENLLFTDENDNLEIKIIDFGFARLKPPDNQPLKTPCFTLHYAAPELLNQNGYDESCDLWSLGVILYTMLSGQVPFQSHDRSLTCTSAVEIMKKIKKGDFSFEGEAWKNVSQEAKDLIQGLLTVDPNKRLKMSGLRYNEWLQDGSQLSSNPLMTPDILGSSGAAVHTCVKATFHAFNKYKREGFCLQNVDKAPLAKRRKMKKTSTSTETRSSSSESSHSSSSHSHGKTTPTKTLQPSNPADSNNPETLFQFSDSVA

Set 1 — action: inhibitor; concentration: 1 µM
SMILES: CC#CC(=O)N1CCC[C@H]1c1nc(-c2ccc(C(=O)Nc3ccccn3)cc2)c2c(N)nccn12
The inhibition was 8% (Ribosomal protein S6 kinase alpha-5, N-terminal kinase domain (RPS6KA5, Homo sapiens, UniProt O75582)).
For Mitogen-activated protein kinase kinase kinase 19 (MAP3K19, Homo sapiens, UniProt Q56UN5); enzyme activity: inhibition read 10%.
It gave 0% for inhibition (Myosin light chain kinase (MYLK3, Homo sapiens, UniProt Q32MK0); enzyme activity).
The inhibition was 17% (Serine/threonine-protein kinase D3 (PRKD3, Homo sapiens, UniProt O94806); enzyme activity).
It gave 51% for inhibition (Serine/threonine-protein kinase/endoribonuclease IRE1 (ERN1, Homo sapiens, UniProt O75460); enzyme activity).
It gave 17% for inhibition (Aurora kinase A (AURKA, Homo sapiens, UniProt O14965); enzyme activity).

Set 2 — method: competition with immobilised ligand; concentration: 1 µM
SMILES: CN1CCN(c2cnc3c(C4CCN(C(=O)c5ccc(OC(F)(F)F)cc5N)CC4)ncnc3c2)CC1
It gave 100% for remaining binding (Epidermal growth factor receptor (EGFR, Homo sapiens, UniProt P00533, L861Q); cell-free assay).
It gave 69% for remaining binding (Hepatocyte growth factor receptor (MET, Homo sapiens, UniProt P08581); cell-free assay).
For Tyrosine-protein kinase Yes (YES1, Homo sapiens, UniProt P07947); cell-free assay: remaining binding read 100%.
Serine/threonine-protein kinase ICK (CILK1, Homo sapiens, UniProt Q9UPZ9); binding — remaining binding: 100%.
It gave 99% for remaining binding (Mitogen-activated protein kinase kinase kinase kinase 5 (MAP4K5, Homo sapiens, UniProt Q9Y4K4); cell-free assay).
It gave 100% for remaining binding (Mast/stem cell growth factor receptor Kit (KIT, Homo sapiens, UniProt P10721, T670I/V559D); cell-free assay).

Set 3 — concentration: 1 µM
Structure (SMILES): C[C@H]1CC[C@H](n2c3cnccc3c3cnc(Nc4ccc5c(n4)CCN(C(=O)CO)C5)nc32)CC1
It gave 13% for remaining binding (Non-receptor tyrosine-protein kinase TYK2, JH2 (TYK2, Homo sapiens, UniProt P29597); binding, competition with immobilised ligand).
For Protein-tyrosine kinase 6 (PTK6, Homo sapiens, UniProt Q13882); binding, competition with immobilised ligand: remaining binding read 92%.
It gave 100% for remaining binding (Insulin receptor-related protein (INSRR, Homo sapiens, UniProt P14616); binding).
Mitogen-activated protein kinase kinase kinase 19 (MAP3K19, Homo sapiens, UniProt Q56UN5); binding, competition with immobilised ligand — remaining binding: 44%.
Tyrosine-protein kinase Srms (SRMS, Homo sapiens, UniProt Q9H3Y6); cell-free assay, competition with immobilised ligand — remaining binding: 89%.
For Serine/threonine-protein kinase TAO1 (TAOK1, Homo sapiens, UniProt Q7L7X3); binding, competition with immobilised ligand: remaining binding read 68%.

Set 4 — read-out: enzyme activity; action: inhibitor; concentration: 0.5 µM; relative to: control
Target: Serine/threonine-protein kinase Nek11 (NEK11, Homo sapiens, UniProt Q8NG66)
UniProt Q8NG66, sequence (whole entry, looked up): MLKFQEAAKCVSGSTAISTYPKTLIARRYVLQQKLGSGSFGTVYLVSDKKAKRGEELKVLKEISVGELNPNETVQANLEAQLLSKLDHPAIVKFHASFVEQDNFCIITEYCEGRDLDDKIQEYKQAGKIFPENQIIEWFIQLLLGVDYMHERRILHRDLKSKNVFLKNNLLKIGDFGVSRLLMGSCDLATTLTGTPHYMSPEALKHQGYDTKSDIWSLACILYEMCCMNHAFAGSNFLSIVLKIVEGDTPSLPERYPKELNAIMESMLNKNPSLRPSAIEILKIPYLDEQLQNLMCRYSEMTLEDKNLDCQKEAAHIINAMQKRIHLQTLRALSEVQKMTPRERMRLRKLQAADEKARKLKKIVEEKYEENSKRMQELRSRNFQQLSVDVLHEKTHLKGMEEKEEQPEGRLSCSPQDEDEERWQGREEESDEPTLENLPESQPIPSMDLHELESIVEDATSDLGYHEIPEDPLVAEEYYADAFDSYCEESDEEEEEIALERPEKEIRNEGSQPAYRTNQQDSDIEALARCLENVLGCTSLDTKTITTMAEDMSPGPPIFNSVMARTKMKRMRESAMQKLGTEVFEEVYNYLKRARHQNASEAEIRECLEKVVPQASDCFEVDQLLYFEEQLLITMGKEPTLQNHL
`Cn1c2ccccc2c2c3c(c4c5ccccc5n(CCC#N)c4c21)CNC3=O` gave a remaining activity of 110%.
With `NCCNc1ncc(C(N)=O)c(Nc2cccc(C(F)(F)F)c2)n1` the remaining activity was 103%.
For `Cc1nc(-c2ccccc2)c(-c2ccncc2)o1`, the remaining activity was 76.7%.
`CCOC(=O)c1c(C)[nH]c(/C=C2\C(=O)Nc3ccccc32)c1C` has a remaining activity of 96.6%.
`O=C(CCCc1ccc(-c2ccccc2F)cc1)Nc1ccc(O)cc1` gave a remaining activity of 100%.
The remaining activity of `Cc1ccc(Nc2nccc(N(C)c3ccc4c(C)n(C)nc4c3)n2)cc1S(N)(=O)=O` is reported as 94.8%.
`O=C1NC(=O)C(c2cn(CCCO)c3ncccc23)=C1c1cnccn1` has a remaining activity of 108%.
`COc1cc2ncnc(Nc3ccc(Oc4ccccc4)cc3)c2cc1OC` has a remaining activity of 74.8%.
`O=C(O)c1ccc2c3c1cccc3c(=O)n1c3ccccc3nc21` has a remaining activity of 83%.
With `Nc1[nH]nc2nc3ccccc3nc12` the remaining activity was 110%.
With `Cc1ccc(NC(=O)c2ccc(CN3CCN(C)CC3)cc2)cc1Nc1nc(-c2cccnc2)cs1` the remaining activity was 95.1%.
For `O=C(Nc1cccc(Nc2cc(Nc3cccc(C(F)(F)F)c3)ncn2)c1)C1CC1`, the remaining activity was 94.3%.
`COc1ccc(CNC(=O)Nc2ncc([N+](=O)[O-])s2)cc1` gave a remaining activity of 104%.
With `COc1ccc(OC)c2c(=S)c3ccccc3[nH]c12` the remaining activity was 130%.
For `COc1cc2nccc(Oc3ccc(NC(=S)NC(=O)c4ccccc4C)cc3)c2cc1OC`, the remaining activity was 96.7%.

A few entries again (set 4):
`O=C1NC(=O)C(c2cn(CCCO)c3ncccc23)=C1c1cnccn1` has a remaining activity of 108%.
`COc1cc2ncnc(Nc3ccc(Oc4ccccc4)cc3)c2cc1OC` has a remaining activity of 74.8%.
